Results from different studies.
Several values in a cell are separate wells, animals, samples, runs or records. Numbers after ± are the reported error. In brackets after ≈: the same amount, converted by molar mass.

CC1(CNc2nc(-c3cccs3)nc(Cl)c2-c2c(F)cc(N)cc2F)COC1
motility (Schistosoma japonicum; adult; 1.2 µM, 2 h; reference: DMSO control): 45%

COC(=O)[C@H](Cc1c[nH]c2ccccc12)NCc1cc2ccccc2nc1SC
growth (Pseudomonas aeruginosa; 8 µg/mL, with: pentamidine 100 µM; reference: control): 72.2%

Cc1cc(OC(C)C)ccc1C(=O)C(C)(C)NC(=O)c1sccc1C
inhibition (Botrytis cinerea; germ tube elongation; B05.10; 0.1 µg/mL): 84.9 ± 9%

CNS(=O)(=O)c1ccccc1Nc1nc(Nc2ccc(N3CCOCC3)cc2OC)ncc1Br
parasite growth (Plasmodium falciparum; LDH readout; 3D7 Hyp1-Nluc; 2 µM, 72 h; reference: DMSO): 14.2%

O=C(NCc1nc(-c2ccccc2)cs1)[C@H]1CCCN(C(=O)c2ccccn2)C1
EC50 (Plasmodium falciparum; SYBR Green growth; asexual blood-stage parasites, 3D7; 72 h): 2200 ± 310 nM

Nc1nc(-c2ccccc2)nc2[nH]nc(Nc3ccc(C(F)(F)F)cc3)c12
clinical score (coxsackievirus B3; 31-1-93, NMRI mice, CVB3 chronic myocarditis; oral, 100 mg/kg twice daily, day 17, dosed days 1 to 7, score scale 0 to 7; direction not given): 0.11

C[C@@H]1[C@H](O)[C@@H](C)/C=C/C=C/C=C/C=C/C=C/C=C/C=C/[C@H](O[C@@H]2O[C@H](C)[C@@H](O)[C@H](N)[C@@H]2O)C[C@@H]2O[C@](O)(C[C@@H](O)C[C@@H](O)[C@H](O)CC[C@@H](O)C[C@@H](O)CC(=O)O[C@H]1C)C[C@H](O)[C@H]2C(=O)O
anti-leishmanial effect difference (Leishmania major; promastigotes; 48 h, unit not given; reference: compound minus Glu): 10.2

O=C(Nc1ccc(CNc2ncnc3ccccc23)cc1)c1ccc(Cl)c(F)c1
parasite growth (Plasmodium falciparum; nanoluciferase readout; 3D7 Hyp1-Nluc; 2 µM, 72 h; reference: DMSO): 21.4%

COCC(=O)N1CCCN(C(=O)NCc2nc(-c3ccccc3)cs2)C1
EC50 (Plasmodium falciparum; SYBR Green growth; asexual blood-stage parasites, 3D7; 72 h): > 5000 nM

COc1ccc(OCCCO)cc1-c1cn2cc(-c3nnc(NCCCCc4ccccc4)o3)ccc2n1
inhibition (Plasmodium falciparum; schizont egress, Nluc release; Hyp1-Nluc; 10 x growth EC50, 4 h): 80.3%

CC1(C)c2nc(-c3ccc(F)cc3)c(Nc3ccc(F)cc3)n2CCN1C(=O)CN
maximum killing rate (Plasmodium berghei; checkerboard model fit; HepG2 spheroids): 0.117 h⁻¹

COC(=O)[C@@H](NCc1cc2ccccc2nc1OCc1ccccc1)C(C)C
growth (Pseudomonas aeruginosa; 4 µg/mL, with: pentamidine 50 µM; reference: control): 101%

CC1(C)S[C@@H]2[C@H](NC(=O)[C@H](N)c3ccc(O)cc3)C(=O)N2[C@H]1C(=O)O
zone of inhibition (Serratia marcescens; MTCC 4301; 10 µg/mL): 30 mm

COc1ccc(C[C@H](NC(=O)[C@H](C)NC(=O)CN2CCOCC2)C(=O)N[C@@H](Cc2ccccc2)C(=O)C2(C)CO2)cc1 (stereo in doubt)
parasitaemia suppression (Plasmodium berghei; ANKA, BALB/c mouse, infected; dose not given, 4-day test, 4 days treatment, day 6 post infection): > 97% and > 95%

CCC(NC(C)C)C(O)c1ccc(O)c(O)c1 (centres unmarked)
fluorescein ingestion (Drosophila melanogaster; fluorescence; liquid food, 40 µg/mL, first instar larvae; reference: solvent): 21%

COCC(=O)N1CCC[C@H](C(=O)NCc2nc(C3CCN(C)CC3)cs2)C1
EC50 (Plasmodium falciparum; SYBR Green growth; asexual blood-stage parasites, 3D7; 72 h): > 5000 nM

N[C@@H](CS(=O)(=O)O)C(=O)O
log2 fold change (binding, MIDAS equilibrium dialysis LC-MS; A2AR-BRIL thermostabilized; concentration not given; reference: no-protein control): -0.342

O=C1C(Cl)=C(n2cncn2)C(=O)c2ccccc21
zone of inhibition (Serratia marcescens; MTCC 4301; 10 µg/mL): 15 mm

CC(=O)NC[C@H]1CN(c2ccc(N3CCOCC3)c(F)c2)C(=O)O1
MIC50 (Staphylococcus aureus; MRSA, 10 isolates; pH 8.5): 2 µg/mL (≈ 5.93 µM)

Cc1ncc(CO)c(CN)c1O
log2 fold change (binding, MIDAS equilibrium dialysis LC-MS; A2AR-BRIL thermostabilized; concentration not given; reference: no-protein control): -0.0952

O=[N+]([O-])c1ccc(Nc2ccnc3ccc(-c4ccc(S(=O)(=O)N5CCOCC5)cc4)cc23)cn1
EC50 (Plasmodium falciparum; parasite growth, SYBR Green; W2): 680 nM

N#CC(=C1C=CC(=NOC(=O)c2ccccc2)C=C1)c1ccccc1
MFC (Clavispora lusitaniae; broth dilution; ATCC 34449; 48 h, 37 °C): 128 µg/mL (≈ 392 µM)

CNC(=O)c1cc(Oc2ccc(NC(=O)Nc3ccc4c(c3)OCO4)cc2)ccn1.O=C(O)C(F)(F)F
rescue of viability (Drosophila melanogaster; ptc>dRet M955T; in food, concentration not given, 25 °C): inactive

CC(=O)Oc1ccccc1C(=O)Nc1ncc([N+](=O)[O-])s1
parasite number (Cryptosporidium parvum; HCT-8; EC90, 72 h; reference: DMSO control): 160% and 138% and 170% and 106%

Cc1cc(C(C)(C)C)cc(C)c1CC1=NCCN1
fluorescein ingestion (Drosophila melanogaster; fluorescence; liquid food, 40 µg/mL, first instar larvae; reference: solvent): 13%

COc1ccc(Nc2ccnc3ccc(-c4ccc(S(=O)(=O)N5CCOCC5)cc4)cc23)cc1C
EC50 (Plasmodium falciparum; parasite growth, SYBR Green; W2): 1200 nM

CC(=Nc1ccc(N=Cc2cnccn2)cc1)N(C)C
anthelmintic rate (Necator americanus; hamster (Mesocricetus auratus), infected; oral, 50 mg/kg single dose, 24 h): 100%

O=c1cc(-c2ccccc2)oc2cc(O)c(O)c(O)c12
fluorescein ingestion (Drosophila melanogaster; fluorescence; liquid food, 40 µg/mL, first instar larvae; reference: solvent): -56.9%

COc1ccc(CNc2nc(-c3ccc(C(=O)O)nc3)nc3sc4c(c23)CCCC4)cc1Cl
parasite growth (Plasmodium falciparum; LDH readout; 3D7 Hyp1-Nluc; 2 µM, 72 h; reference: DMSO): 30.2%

COc1c(-c2coc3cc4c(cc3c2=O)CC(O)C(C)(C)O4)ccc2c1C=CC(C)(C)O2 (centres unmarked)
fluorescein ingestion (Drosophila melanogaster; fluorescence; liquid food, 40 µg/mL, first instar larvae; reference: solvent): -26.4%

N=C(N)c1ccc(OCc2cc(Br)cc(COc3ccc(C(=N)N)cc3)c2)cc1
MIC of compound in combination (Escherichia coli; checkerboard; BW25113; concentration not given, lowest-FICI combination, with: erythromycin): 6.25 µg/mL

COCC(=O)N1CCC[C@H](C(=O)NCc2nc(-c3ccc(NC4CCC4)nc3)cs2)C1
EC50 (Plasmodium falciparum; SYBR Green growth; asexual blood-stage parasites, 3D7; 72 h): 100 ± 26 nM

CO[C@H]1[C@H](O[C@H]([C@H]2O[C@@H](n3ccc(=O)[nH]c3=O)[C@H](O)[C@@H]2O)[C@H](NCCCNC(=O)[C@@H](NC(=O)[C@@H](NC(=O)N[C@H](C(=O)O)C(C)C)[C@@H]2CCN=C(N)N2)[C@@H](O)C(C)C)C(=O)O)O[C@H](CN)[C@H]1O
MIC90 (Mycolicibacterium smegmatis; microplate alamar blue; ATCC 607; nutrient-deficient condition): 1.4 ± 0.082 µg/mL (≈ 1.48 µM)

CCNC(=O)N1CCC[C@H](C(=O)NCc2nc(-c3ccccc3)cs2)C1
EC50 (Plasmodium falciparum; SYBR Green growth; asexual blood-stage parasites, 3D7; 72 h): > 5000 nM

CN(C)CCOC(c1ccccc1)c1ccccc1
fluorescein ingestion (Drosophila melanogaster; fluorescence; liquid food, 40 µg/mL, first instar larvae; reference: solvent): 12.3%

O=C(NCc1nc(-c2ccc(C(F)(F)F)cc2)cs1)[C@H]1CCCN(C(=O)CO[C@@H]2CCCNC2)C1
EC50 (Plasmodium falciparum; SYBR Green growth; asexual blood-stage parasites, 3D7; 72 h): 100 ± 36 nM

CC/N=C(\c1ccc(OC)c(OC)c1)N1CCCc2cc(C3=NNC(=O)SC3C)ccc21 (centres unmarked)
parasite growth (Plasmodium falciparum; nanoluciferase readout; 3D7 Hyp1-Nluc; 2 µM, 72 h; reference: DMSO): 38.4%

COCC(=O)N1CCC[C@H](C(=O)NCc2nc(-c3ccc(C)cc3)cs2)C1
EC50 (Plasmodium falciparum; SYBR Green growth; asexual blood-stage parasites, 3D7; 72 h): 24 ± 2.1 nM

CC(C)n1ncc2c(C(=O)NCC3(C)CNC3)cc(C3CC3)nc21
cell protection (coxsackievirus A16; RD; 0.5 µM): 44.8% and 44.3%

COc1ccccc1C(=O)N1CCC[C@H](C(=O)NCc2nc(-c3ccccc3)cs2)C1
EC50 (Plasmodium falciparum; SYBR Green growth; asexual blood-stage parasites, 3D7; 72 h): 2900 ± 450 nM

O=C(NCCN1CCCC1)c1cc(-c2ccc(CN3CCOCC3)cc2)nc2ccc(F)cc12
maximum killing rate (Plasmodium berghei; checkerboard model fit; HepG2 spheroids): 0.116 h⁻¹
